# Results of several laboratories.
# Numbered parts are unrelated; each lists some results of a single study.

# Set 1
# Target: Hepatocyte nuclear factor 3-alpha (Foxa1, Mus musculus, UniProt P35582, residues 1-468, full length assumed)
# Method: EMSA with sequencing
# Form: double-stranded DNA, one strand shown
# Sample: in vitro
# Concentration: 10 and 20 nM
# Notes: whole designed probe, mean of two concentrations, ends assumed
# Baseline: negative control set to 0
# Reading: higher = stronger binding
# Construct (chain): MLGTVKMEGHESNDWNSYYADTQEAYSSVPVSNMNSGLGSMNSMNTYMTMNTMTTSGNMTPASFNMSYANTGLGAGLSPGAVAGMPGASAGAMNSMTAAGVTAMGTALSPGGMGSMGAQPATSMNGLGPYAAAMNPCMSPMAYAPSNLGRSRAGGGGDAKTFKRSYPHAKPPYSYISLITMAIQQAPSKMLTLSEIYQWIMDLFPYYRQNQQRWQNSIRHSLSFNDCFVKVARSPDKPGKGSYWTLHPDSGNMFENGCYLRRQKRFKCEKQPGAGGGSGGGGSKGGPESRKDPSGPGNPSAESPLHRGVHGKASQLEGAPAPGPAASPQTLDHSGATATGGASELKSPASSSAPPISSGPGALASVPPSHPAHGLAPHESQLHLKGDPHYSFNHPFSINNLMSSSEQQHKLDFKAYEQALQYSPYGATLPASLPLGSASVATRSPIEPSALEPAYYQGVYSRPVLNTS
Oligonucleotide,normalised bound fraction [ratio]
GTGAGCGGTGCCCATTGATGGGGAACTTTCAAATAAAACAATGTCTTTAAAGAGGACTAAGATTGCAAATGAATGCTTTTAAAGAAATGCAGGAGGATAAATTAGCAAGCAGGAAACAATGTAAACAAATATTTGTGTCCAATTATTGAAAGTGTTTCAATAAGCATGGATAAAGTGGCCTTTAAGCAATCATGATACAGCTAAAAAAGACAATTTTAGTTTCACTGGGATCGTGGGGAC,0.463
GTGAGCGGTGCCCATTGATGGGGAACAATGAGCTAAGATTCCAACTTAAAAAATGTAAGAATAAACCTGGTGTATCATTCCCAAAGAAAAAGAGCAGTTTAGAAATAATAAGAGCACAATATTGACATAGAAAAGAAAGACACAGTAGAGAAGATCAACAAAACCAAGAACTGGTTCATAGAAAAATAGCAATAAAATAGACTTCAGGCAAAATTATCCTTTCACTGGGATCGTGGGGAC,0.301
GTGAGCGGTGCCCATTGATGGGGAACCCATACATCTTTATTTTAAGGAATATGATATGTAAAATCCTGGTCGATTACTTTAAAATATCGATAAATACCAAGTGTCTAAGCTATAGCTTAAGTAAACAAGGGAAGTAAGGACTTTGGCATTCTTAGCTCAAATACTTTTGACCTGTATGTACACATGATATCTTTTTAAAATTTTGTTTAGAAAATGCAATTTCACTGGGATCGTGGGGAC,0.5
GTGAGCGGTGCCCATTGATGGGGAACCACAAAGCAACTAGACAAATATTGATTTTGTAGTTACTGTAAAGGATTGAACAAAAATATGAAGAGCAGAGTTTCTACTCAAATGTGATCAAAGTCAACACTGAGGATCTCACGAGATTAAAACAATGCTACTAACCTGGATAAGGTGGCATCCCCCGAAAGACTATTTTCTTACCCTTTTTTGTTTGTTTGATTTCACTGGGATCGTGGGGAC,0.425
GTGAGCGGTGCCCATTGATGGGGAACACACTTCTTCCATTTCCTCAACTCCTAAACATTCATTTATTCATTCTTCATCACACAAAAATCTGAATCTGGCTTCTGCCCCCTACCCTCCTTATTTACTTTCTCAAATAGTATACATATAGTCTTTAAACAAACATACATACATGCATATTTTCAAGATTATCAAGCAATTCCTGTTTCAACTTTTCTTAAATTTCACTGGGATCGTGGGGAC,0.436
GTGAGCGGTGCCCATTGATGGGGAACCTCCAGGGTAGTTGTCCTTCCTGTGGCTGCTCACTGATCCAGGCTACTTTGATCTTGTGACTCAAAGTTCAACAAAATGTGGATGCGTCATTTTATTTACACTTCAATGGCCCTTACGAAATAGAAGGCCTCATCCAGTTGCAAGAAGTTTGGGAAATGTAGCCTTCCATATTTACAGGAATAAATGAAAAACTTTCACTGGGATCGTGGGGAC,0.285

# Set 2
# Target: RNA binding protein fox-1 homolog 2, RRM domain, GST-SBP tag (RBFOX2, Homo sapiens, UniProt O43251-10, residues 100-194)
# Method: RNA Bind-n-Seq
# Form: RNA
# Sample: in vitro
# Concentration: 365 nM
# Notes: natural RNA segment, single round, ends assumed
# Baseline: no-protein control
# Reading: higher = stronger binding
# Construct (chain): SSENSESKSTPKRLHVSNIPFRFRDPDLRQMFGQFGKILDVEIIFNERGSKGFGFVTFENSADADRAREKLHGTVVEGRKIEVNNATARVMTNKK
Oligonucleotide,RBNS enrichment (R)
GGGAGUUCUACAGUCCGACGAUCCUCCCCACUUAAGUCCAAGUCACAUUGUCUAUCCCAGUGUGUAGCUCUGUCACCCUGCUUGACACAUCCAGUGGCCUACAGCGACUCUUCUCUAACCCCACCCCCUCCAAUGGAAUUCUCGGGUGCCAA,0.733
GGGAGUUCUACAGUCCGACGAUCACCCAGAAAGACUGGAGAAGGUAUGUGCUUUAAGUGCUGCUCUACCUGAAAAGAAAUCCUUUAAAUUACCUAUGGAAGUGAUGUCCUCAGAUAAUCUUAAUGACUAUUUUUGGAAUUCUCGGGUGCCAA,0.232
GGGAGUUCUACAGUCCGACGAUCAUUGUUCUGAAAACUAAAGUUUAAAUCUUUAUGCUGUUGCUUGCUAGAUAUCCUGUUCUUUGGUAGAAAAUUCCCAUAGUCUGUACUCAAGAAGUGCCUAAAAAUGGAUUUGGAAUUCUCGGGUGCCAA,1.12
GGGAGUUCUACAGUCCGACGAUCGUUUUUAGAGAGAUGGGUCUCUCUGAGGAGGUCUGUCUCCCUGCUGUACAAUGCCUUUUAAACCUUCCCCUUUUUCCAUACUUCCCAUAGGGCAUUUGUAGAAUUAGUGAUGGAAUUCUCGGGUGCCAA,0.844
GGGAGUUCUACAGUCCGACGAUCUUAAGUUGAGGAAGAACUGUCUCCUCUUCCACCUUUCUACAGAAUGCCUCUUCUUUACCUCCCGCCUCUAUGGGGAUGACUUUUGAGGCCCCACCUGGGUCAAGGGUUCAUGGAAUUCUCGGGUGCCAA,0.278
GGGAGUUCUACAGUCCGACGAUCCUGGUCGCUGCAGAUUCUCAGCAGCACUUUUACUGUAUAUAGAAAUUGAAAUAAAGACCUCAGCUAUAACCUGGUGGUCAGACUCAUGUUUGUUUUGCUUUUUAUUUUUGUGGAAUUCUCGGGUGCCAA,0.965
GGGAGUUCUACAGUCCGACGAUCACCACCCUGCCUCGUUUCCACCAAGCAUUCCAGUAGCCCCCAUGAAGGUCCCCCAACUCAGUUUUUUGCUUCUGCCAGGGAGCCUAAGUACCCACCCCGUCCACCUCCCCUGGAAUUCUCGGGUGCCAA,0.948
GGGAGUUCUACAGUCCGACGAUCGAUAAAACUGAUUCUGACCCACACAGUUUGAUUCUAGAGCCUGUUCUGACUACUGUGCUAAGGUGUGUAUAAUGAACAUGGUAAUUCUAACCAGCUUUUUAAAAAUAUGUUGGAAUUCUCGGGUGCCAA,0.576
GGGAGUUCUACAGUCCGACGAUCCAGCUUCCUUCCAAGUCUUCCUGACCACCUUGCACUAUUGGACUUUGGAAGGAGGUGCCUAUAGAAAACGAUUUUGAACAUACUUCAUCGCAGUGGACUGUGUCCCUCGGUGGAAUUCUCGGGUGCCAA,0.713

# Set 3
# Target: Protein C-ets-1 (ETS1, Homo sapiens, UniProt P14921, residues 1-441, Y397A, full length assumed)
# Method: protein-binding microarray
# Form: double-stranded DNA, one strand shown
# Sample: in vitro
# Concentration: not given
# Notes: k-mer, scored over probes, only values ≥0.25
# Reading: higher = stronger binding
# Construct (chain): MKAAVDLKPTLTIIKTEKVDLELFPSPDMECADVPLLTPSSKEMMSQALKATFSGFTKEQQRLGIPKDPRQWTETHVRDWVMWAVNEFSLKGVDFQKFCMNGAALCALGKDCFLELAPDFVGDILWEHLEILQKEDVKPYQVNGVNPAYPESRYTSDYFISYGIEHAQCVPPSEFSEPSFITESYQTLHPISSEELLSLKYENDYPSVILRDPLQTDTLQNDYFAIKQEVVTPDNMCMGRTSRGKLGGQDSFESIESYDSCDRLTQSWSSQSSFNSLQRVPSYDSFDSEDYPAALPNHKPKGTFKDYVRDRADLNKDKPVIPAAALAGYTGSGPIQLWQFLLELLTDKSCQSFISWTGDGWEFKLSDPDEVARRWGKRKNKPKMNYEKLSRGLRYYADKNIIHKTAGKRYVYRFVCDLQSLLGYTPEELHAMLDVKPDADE
Oligonucleotide,E-score
ATATCCGA,0.299
GACATACA,0.317
GATTGGCA,0.282
CGGTGACA,0.259
AATTGGCA,0.345
CAATTGGC,0.312
ACAAACGT,0.252
GCGGACAA,0.271
CGTTTGTC,0.299
GCGCGGAA,0.253
GTCGGAAA,0.319
ACGTCAAA,0.279
ACAAAAAA,0.288
ACATGTAC,0.349
CCCGACAA,0.323
ACATATAC,0.279
GCAAAATA,0.253
TGCCGGAA,0.414
GACATGTA,0.315
CATTTCCG,0.42

# Set 4
# Target: Interferon regulatory factor 7, full length, phosphomimetic (IRF7, Homo sapiens, UniProt Q92985, residues 1-503, S471D/S472D/S475D/S476D/S477D/S483D/S484D/S487D)
# Method: protein-binding microarray
# Form: double-stranded DNA, one strand shown
# Sample: in vitro
# Concentration: 2200 nM top
# Notes: 60-bp whole probe
# Together with: salmon DNA 0.4 mg/ml
# Baseline: random background probes
# Reading: higher = stronger binding
# Shared flanks, not repeated: GCCTAGCAC … GTCTTGATTCGCTTGACGCTGCTG
# Target sequence (chain): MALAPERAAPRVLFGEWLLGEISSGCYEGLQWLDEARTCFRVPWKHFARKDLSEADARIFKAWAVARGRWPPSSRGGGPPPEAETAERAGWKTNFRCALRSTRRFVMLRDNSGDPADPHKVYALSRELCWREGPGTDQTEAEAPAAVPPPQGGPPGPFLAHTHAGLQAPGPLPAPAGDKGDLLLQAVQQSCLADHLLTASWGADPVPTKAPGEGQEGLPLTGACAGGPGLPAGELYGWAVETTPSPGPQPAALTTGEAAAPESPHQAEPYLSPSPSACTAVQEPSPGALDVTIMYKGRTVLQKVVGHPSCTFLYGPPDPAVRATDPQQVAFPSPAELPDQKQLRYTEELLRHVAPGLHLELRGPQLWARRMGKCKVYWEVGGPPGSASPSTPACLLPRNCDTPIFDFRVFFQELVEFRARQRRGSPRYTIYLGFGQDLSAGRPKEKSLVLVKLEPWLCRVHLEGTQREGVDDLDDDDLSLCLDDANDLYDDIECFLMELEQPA
Oligonucleotide,fitted relative affinity
GACAATATCAGACTGGAGACGTGCTAG,-0.00414 z-score
TTAGGTCACCTTATCCTTTAGTGCTAG,0.612 z-score
TTAGGCCTCCTTCTCCTTTAGTGCTAG,0.774 z-score
TCACATTTGATAAATCTTACTGTGCTA,0.58 z-score
TCAAACTTGTATTTGTCACTGTGCTAG,0.441 z-score
TCAGGTTTCGGACTGGGTTAGTGCTAG,3.59 z-score
TTAGGACTGCTACTGCTTTTGTGCTAG,-0.117 z-score
TTAGGTATCGCTCTCGGTTAGTGCTAG,0.917 z-score
TTAGAACTGAGTCTCGTTTAGTGCTAG,0.19 z-score
TCAGTTTTCAGTCCTGGACTGTGCTAG,2.74 z-score
GACGGTCTCGATCTCGGGACGTGCTAG,-0.0333 z-score
GGCGATATCGGGTATCGAGACGTGCTA,-0.379 z-score
CTAATTAGAATTTTCATTAAGTGCTAG,0.106 z-score
TTAGGTTTCGGACTGGCTTAGTGCTAG,3.12 z-score
GACGATTCCAGTTTCGAGCCGTGCTAG,3.15 z-score
TCAGGTCTCCTTATCCTTTAGTGCTAG,1.34 z-score
TCAAGTCTCATATTTATACTGTGCTAG,0.526 z-score
TTAGGTTTCGGGACTTGGTTAGTGCTA,3.46 z-score
TGAAGACTTTCTTTCAAATGGTGCTAG,0.0126 z-score
AGACAAGCATTTGGTGATGCGTGCTAG,-0.669 z-score
TTAGAACTGGGTCTCGATTAGTGCTAG,-0.0112 z-score
TACGATATCAGTATCGAGACGTGCTAG,0.431 z-score
TTAGATATGAGTATCGATTAGTGCTAG,-0.0301 z-score
